Results pooled from the literature.
A part holds a random share of what one study measured. Changes are numbered by the printed parent chain.

Block 1 — target: MAFF, bZIP domain (human); method: DHFR protein complementation; matrix: yeast; baseline: wild-type JUN-FOS pair; direction: higher = stronger binding; quantity: binding fitness
Notes: single substitutions, most at no-binding floor
Parent: JUN, bZIP domain (human); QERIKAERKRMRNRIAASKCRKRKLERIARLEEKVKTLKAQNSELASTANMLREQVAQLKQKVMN; partner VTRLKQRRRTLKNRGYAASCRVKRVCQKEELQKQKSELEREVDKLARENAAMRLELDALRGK
E44D: -1.18 natural log
R30M: -1.38 natural log
V56H: -1.54 natural log
M51R: -1.21 natural log
Q41I: -1.51 natural log
E33P: -1.51 natural log
E44P: -1.54 natural log
R53W: -1.49 natural log

Block 2 — method: RNA Bind-n-Seq; form: RNA; matrix: in vitro; concentration: not given; baseline: input RNA pool; direction: higher = stronger binding; quantity: bound/input enrichment
Target: RING finger protein unkempt homolog, zinc fingers 1-6, GST-SBP tag (UNK, Homo sapiens, UniProt Q9C0B0, residues 30-357)
Notes: RNA with constant flanks, human and mouse sites, ends assumed
Residues (chain): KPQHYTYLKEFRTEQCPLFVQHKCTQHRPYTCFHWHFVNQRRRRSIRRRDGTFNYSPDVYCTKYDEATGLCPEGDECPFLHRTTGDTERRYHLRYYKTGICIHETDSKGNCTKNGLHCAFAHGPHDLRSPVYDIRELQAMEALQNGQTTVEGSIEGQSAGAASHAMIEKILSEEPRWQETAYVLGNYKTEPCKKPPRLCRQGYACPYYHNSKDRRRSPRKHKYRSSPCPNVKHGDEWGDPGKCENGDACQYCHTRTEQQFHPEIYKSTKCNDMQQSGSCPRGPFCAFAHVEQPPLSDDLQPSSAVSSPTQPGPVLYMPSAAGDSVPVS
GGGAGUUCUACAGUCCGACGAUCGGAGUUUUUGGUGGCCCGUACCCGUUUGGCAUUGAUCCGAUUUGGAACAUUGCAACCAACAAGCUGACCUUCCUCAACUCCUUCAAGAUGAAGAUGUCUGUUAUCCUCGGCAUCAUCCACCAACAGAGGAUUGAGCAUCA: 0.0759 ratio
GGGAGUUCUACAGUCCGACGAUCAAAUGCCACCCACAUUCAAAGACACAGGUGCAGCAGUUUGGGAAGAUGGUGAGUUGGAAGAAGGUGAACUGGAAGACGACGGGGCUGAGGAGGUCCAGGACCCCCCUGGAGGACAAGAGACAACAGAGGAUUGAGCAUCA: 0.38 ratio
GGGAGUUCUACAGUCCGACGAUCGCCUCUGUCCCCCAGUGAUCGGAUCAAGGCGCUGAGCGAGGCCCUGCCUGCGGGGCGGCCAUGCGGCGGUGACAGGAGCGCGACCGACACGCACGGGCCCCUCGCCCCCUCUCGCCUCCCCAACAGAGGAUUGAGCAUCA: 0.0878 ratio
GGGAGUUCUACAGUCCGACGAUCAGGAGGAAAAUCAUCUUAUCAGACGAAGGCAAAAUGUAUGGUAGGAAUGAAUUGAUAGCCAGAUACAUCAAACUCAGGACAGGCAAGACGAGGACCAGAAAACAGGUGUCUAGUCACAUUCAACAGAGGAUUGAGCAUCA: 0.198 ratio
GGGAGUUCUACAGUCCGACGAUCGAAGCAGAAAAGAUUGAUGGAGCAGCUUCACAAGGAAAGUCUUCGUGCUCGGUGAUGUGACAAUUCUGCUGCAGAGCCUGCGGACACUGGGGAUAUAUUCCACCUGAGGAAGCAAACUGCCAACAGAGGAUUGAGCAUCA: 0.0974 ratio
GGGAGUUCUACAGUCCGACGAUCGCCUCUCUCUUUAUACAUAUGUUUGUCUCGCCAUGCAUGGGUUUUCCUUUCUUCCUUUUUCUGUUUCUUUUUAUUUUUAAACAGCAGUAGUCUCUCUGAUAUCAAAGAGGGAGACAGUGUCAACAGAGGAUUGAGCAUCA: 0.576 ratio
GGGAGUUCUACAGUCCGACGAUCGUUGAAGUUGUUGCUGUUUCAUCCAUUCAUACACAAGACCCUUAUCUAGACAAAUUCUUUGCUCUUGUCAAUGCUCUGGAUGAACACAUGUUCCCGGUCCGAAUUGGGGACAUGCGGAUCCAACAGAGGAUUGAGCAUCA: 1.04 ratio
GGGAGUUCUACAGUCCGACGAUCGACCCACUUGAGAGGACGCCUCCUGGAGAGCAAGUGCUAUCAAAUCACAGUAACUCCCGUAUUCGCCACGGGGCCCGGAGGCUCUGAGUCCUUGAAGGCGUACCUCAAACAAGCCGCUCCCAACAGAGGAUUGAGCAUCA: 0.116 ratio

Block 3 — method: universal PBM; form: double-stranded DNA, one strand shown; matrix: in vitro; concentration: not given; direction: higher = stronger binding; quantity: E-score
Target: Sal-like protein 4, full length isoform B (SALL4, Homo sapiens, UniProt Q9UJQ4-2, residues 1-616)
Notes: 8-mer, flanks averaged, mean of replicates
Construct (chain): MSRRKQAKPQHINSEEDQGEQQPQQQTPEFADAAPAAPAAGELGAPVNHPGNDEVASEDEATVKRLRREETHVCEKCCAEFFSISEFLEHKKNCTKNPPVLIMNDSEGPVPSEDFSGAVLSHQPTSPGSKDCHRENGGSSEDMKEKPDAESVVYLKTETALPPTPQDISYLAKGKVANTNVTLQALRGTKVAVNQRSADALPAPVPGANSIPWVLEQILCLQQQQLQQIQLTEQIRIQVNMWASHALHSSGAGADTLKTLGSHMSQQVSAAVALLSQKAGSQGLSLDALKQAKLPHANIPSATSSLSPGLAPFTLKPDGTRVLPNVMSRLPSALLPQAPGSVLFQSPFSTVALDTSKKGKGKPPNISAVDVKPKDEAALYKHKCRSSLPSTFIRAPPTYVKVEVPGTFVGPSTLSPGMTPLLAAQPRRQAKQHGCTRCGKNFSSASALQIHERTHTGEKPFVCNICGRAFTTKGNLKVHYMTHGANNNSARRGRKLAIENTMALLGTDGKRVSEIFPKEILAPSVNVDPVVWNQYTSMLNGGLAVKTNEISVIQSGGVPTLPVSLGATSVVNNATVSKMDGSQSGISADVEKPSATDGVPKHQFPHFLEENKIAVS
ATACTAAA: 0.269
CGGGGTGC: -0.316
GATCGGGA: -0.227
AACGCTGC: -0.068
AATATGGG: 0.253
ACCGACAC: -0.0722
CAACGCCA: -0.128
AATACAAC: 0.247

Single results of other studies — parent: viral docking peptide; KGVKRKLFAEDSS
KGVKRKDFAEDSS [L7D] — normalised enrichment score (CCNA2, cyclin fold, Cln2 fusion (human); yeast growth competition, sequencing; yeast; strong parent motif; baseline: not given, higher = stronger binding): 0.271

Repeated from above (block 3):
AATACAAC: 0.247
ATACTAAA: 0.269
